Measurements of several laboratories.
Every numbered part comes from another study and shows a few of its results, in no order. Substitutions count along the parent as printed.
Chain of UniProt Q9NSY1 (whole entry, looked up): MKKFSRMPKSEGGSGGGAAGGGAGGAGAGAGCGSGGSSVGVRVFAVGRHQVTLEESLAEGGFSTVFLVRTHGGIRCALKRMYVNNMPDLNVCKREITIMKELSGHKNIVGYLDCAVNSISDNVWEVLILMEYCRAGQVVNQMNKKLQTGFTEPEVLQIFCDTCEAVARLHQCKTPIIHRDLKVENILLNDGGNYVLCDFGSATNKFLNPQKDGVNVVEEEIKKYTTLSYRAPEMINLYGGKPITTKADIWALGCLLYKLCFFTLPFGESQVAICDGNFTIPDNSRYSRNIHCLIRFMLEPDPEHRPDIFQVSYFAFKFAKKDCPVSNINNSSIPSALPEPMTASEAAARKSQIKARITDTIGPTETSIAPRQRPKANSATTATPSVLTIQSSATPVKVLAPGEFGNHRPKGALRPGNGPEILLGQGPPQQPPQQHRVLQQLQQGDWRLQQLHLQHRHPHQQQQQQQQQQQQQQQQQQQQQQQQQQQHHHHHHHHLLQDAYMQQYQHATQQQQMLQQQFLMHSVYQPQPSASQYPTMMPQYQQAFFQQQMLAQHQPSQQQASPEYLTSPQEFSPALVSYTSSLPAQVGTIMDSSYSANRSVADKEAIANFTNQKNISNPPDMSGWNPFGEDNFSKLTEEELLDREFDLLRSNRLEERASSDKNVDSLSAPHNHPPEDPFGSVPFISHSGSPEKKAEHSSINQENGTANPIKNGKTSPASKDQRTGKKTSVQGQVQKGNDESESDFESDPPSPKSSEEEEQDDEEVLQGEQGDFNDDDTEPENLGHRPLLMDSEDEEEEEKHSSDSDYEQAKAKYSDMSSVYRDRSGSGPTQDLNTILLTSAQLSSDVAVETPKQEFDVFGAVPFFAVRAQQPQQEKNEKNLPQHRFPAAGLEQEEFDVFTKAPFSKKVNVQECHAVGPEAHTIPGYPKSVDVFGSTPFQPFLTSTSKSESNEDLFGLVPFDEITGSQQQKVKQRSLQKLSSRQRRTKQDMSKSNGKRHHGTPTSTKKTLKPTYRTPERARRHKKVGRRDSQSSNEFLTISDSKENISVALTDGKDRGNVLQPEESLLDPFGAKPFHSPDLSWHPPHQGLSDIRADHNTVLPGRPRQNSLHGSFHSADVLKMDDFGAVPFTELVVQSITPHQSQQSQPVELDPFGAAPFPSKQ
Chain of UniProt P42336 (whole entry, unmodified, looked up): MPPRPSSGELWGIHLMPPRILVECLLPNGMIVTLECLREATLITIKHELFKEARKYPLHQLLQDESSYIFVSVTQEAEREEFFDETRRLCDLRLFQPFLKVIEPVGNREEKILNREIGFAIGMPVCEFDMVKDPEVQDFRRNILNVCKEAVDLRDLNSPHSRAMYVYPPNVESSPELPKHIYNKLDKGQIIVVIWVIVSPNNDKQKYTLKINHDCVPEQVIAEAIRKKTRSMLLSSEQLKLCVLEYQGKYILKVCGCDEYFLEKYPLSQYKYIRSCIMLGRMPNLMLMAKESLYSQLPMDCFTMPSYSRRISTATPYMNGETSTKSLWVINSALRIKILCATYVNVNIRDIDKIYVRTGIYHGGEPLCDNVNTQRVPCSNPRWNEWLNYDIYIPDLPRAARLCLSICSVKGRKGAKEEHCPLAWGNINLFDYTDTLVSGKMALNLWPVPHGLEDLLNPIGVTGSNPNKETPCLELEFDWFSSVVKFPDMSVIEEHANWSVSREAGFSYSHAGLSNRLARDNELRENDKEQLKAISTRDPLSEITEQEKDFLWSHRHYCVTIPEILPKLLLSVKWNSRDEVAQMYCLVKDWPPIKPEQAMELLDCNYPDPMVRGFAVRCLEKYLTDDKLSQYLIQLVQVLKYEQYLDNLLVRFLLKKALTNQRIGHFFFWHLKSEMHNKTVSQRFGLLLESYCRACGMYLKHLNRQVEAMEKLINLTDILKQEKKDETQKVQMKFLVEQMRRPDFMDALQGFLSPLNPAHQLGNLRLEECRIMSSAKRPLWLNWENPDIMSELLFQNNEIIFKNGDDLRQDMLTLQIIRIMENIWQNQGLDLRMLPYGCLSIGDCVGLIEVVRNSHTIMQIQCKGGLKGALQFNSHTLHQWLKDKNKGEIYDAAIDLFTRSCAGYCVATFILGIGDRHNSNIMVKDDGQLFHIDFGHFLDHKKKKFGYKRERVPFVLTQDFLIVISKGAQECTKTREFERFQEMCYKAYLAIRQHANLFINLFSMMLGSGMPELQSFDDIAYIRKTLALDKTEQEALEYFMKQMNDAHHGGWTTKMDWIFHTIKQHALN
Chain of UniProt Q13233 (whole entry, looked up): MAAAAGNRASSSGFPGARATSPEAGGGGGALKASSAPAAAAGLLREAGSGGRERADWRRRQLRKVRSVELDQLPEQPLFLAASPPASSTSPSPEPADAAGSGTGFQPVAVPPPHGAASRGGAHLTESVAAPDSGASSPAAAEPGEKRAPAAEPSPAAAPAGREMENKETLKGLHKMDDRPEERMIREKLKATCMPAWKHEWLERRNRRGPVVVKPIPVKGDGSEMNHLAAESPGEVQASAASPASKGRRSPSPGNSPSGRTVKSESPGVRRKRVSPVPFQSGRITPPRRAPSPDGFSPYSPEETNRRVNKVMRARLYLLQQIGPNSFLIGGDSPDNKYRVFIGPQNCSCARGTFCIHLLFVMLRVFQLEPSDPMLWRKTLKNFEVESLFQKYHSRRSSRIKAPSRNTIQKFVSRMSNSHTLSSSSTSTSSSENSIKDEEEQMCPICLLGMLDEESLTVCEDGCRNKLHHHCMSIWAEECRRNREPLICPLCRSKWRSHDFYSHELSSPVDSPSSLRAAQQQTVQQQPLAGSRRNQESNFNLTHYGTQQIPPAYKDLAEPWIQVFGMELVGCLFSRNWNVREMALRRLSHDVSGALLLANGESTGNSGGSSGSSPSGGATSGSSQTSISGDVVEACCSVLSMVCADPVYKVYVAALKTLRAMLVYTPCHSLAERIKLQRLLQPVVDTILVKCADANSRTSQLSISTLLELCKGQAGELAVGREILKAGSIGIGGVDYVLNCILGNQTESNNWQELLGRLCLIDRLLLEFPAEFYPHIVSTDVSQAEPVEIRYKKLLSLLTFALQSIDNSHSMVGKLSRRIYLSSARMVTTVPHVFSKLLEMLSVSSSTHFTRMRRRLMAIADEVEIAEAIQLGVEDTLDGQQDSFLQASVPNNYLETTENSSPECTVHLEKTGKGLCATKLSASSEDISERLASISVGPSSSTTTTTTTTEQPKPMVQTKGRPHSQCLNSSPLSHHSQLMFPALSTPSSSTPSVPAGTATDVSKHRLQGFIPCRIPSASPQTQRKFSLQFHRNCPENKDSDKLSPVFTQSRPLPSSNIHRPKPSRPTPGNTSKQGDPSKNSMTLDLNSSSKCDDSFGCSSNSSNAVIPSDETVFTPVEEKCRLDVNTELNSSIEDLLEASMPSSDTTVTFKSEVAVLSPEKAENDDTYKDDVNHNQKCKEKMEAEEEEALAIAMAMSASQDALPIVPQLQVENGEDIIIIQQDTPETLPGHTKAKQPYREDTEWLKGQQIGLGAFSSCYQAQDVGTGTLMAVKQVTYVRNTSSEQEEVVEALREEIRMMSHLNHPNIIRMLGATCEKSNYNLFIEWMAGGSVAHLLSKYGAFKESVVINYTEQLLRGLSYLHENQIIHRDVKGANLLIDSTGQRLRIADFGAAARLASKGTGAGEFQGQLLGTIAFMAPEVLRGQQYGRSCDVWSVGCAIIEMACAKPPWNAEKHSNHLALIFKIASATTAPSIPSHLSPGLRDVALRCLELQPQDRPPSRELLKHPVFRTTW

Series 1
Target: RNA binding protein fox-1 homolog 2, RRM domain, GST-SBP tag (RBFOX2, Homo sapiens, UniProt O43251-10, residues 100-194)
Technique: RNA Bind-n-Seq
Form: RNA
Medium: in vitro
Tested at: 365 nM
Setting: natural RNA segment, single round, ends assumed
Baseline: no-protein control
Direction: higher = stronger binding
Target sequence (chain): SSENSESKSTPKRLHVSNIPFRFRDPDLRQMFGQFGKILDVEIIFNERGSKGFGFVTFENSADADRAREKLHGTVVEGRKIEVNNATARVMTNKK
| Sequence | RBNS enrichment (R) |
| --- | --- |
| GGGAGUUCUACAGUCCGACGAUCUCUAGCAUAUGGACACCUGGCCUCUGCUUGAGCACUUAGGUGACAGGAACUUCCGCACCUCCUGAGGCCCUGGAUGAUUCUAAUUGUUAGAAAUUCUAAUUGUUAGAAAUUGGAAUUCUCGGGUGCCAA | 0.237 |
| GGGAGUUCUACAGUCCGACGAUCAAUGCCUUGUACUACAGGCAGCCUCUGAAGGUGACCACAUAACUGUCUUCACUGUGACCAAUCGGAGUCCCUGCUUGCUUGUGAAGAAGGGGCUUUUGUACCUUGUUGGAUGGAAUUCUCGGGUGCCAA | 0.542 |
| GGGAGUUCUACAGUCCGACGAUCCCAGUGUAAUGAAUGUUUGGAAAAAACUGGAGUUACAGGAAAAUGAAAUCUGACUAUCUGCUAGUUGCCAAAACCCAGAAACAUUCCUGUGUAAUGGUUAGUUGGGAAAGUGGAAUUCUCGGGUGCCAA | 0.506 |
| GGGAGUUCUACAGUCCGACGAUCGUCAAUAAAGAUAGUUCAAGGCCAGCUUGGACUAUAUGAUAUGACUGCCCAAUUUUAAAGUUAUUCUUUUUGGGAGUGAGACAGGAUUAACUAAACAAGUUUGUGUUUUUUGGAAUUCUCGGGUGCCAA | 0.665 |
| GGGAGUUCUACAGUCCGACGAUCAUUCUGUGUGUUACAGAGAAGUACUGAAAAGUUAAGGACACUUGGGGGCUACUUUUUUCCCUCUAAACUAAAAAAGACAUUGGCUGAAUUAUAACUAGUUAGUUAUCACCUGGAAUUCUCGGGUGCCAA | 0.421 |
| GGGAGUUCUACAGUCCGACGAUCGAUAGGUUUGCAAUAUGUGGGAUUCAGCCUUUGAUUUCAAUAGAGCUGAGAGCUUUUAGAACAAGCAGGCAUUUAUUUAAUGUUUCCUUAGUCCAUUGGCAAGCUUUAUCUGGAAUUCUCGGGUGCCAA | 0.287 |
| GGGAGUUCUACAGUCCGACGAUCACAGGCAUGCACCAGUGCCGCCUGUGCCCACGUGUGCAGACUGUGGCUGCAGAGACCUUGCGACCAUGUGUAGAUUGCGUGGACCCCGACAAAGGGAAGGCUGCUGUGUAUGGAAUUCUCGGGUGCCAA | 0.31 |
| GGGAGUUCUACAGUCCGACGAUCGACUUAACCAAAUCUGAGUGCCCCGGAUGGAGUUGAGCUCUGCAGGUCAGCUAACUCUAGCUCAGGUUUGAGAACUCCUGUUGAGAAGAAGUGUGAGAUUUCUGCUUAAGUGGAAUUCUCGGGUGCCAA | 0.764 |

Series 2
SMILES: CN(C)CC#Cc1ccc(OCCCc2sc(N3CCc4cccc(C(=O)Nc5nc6ccccc6s5)c4C3)nc2C(=O)O)c(F)c1
Observed: cell-free assay
Technique: competition with immobilised ligand
Tested at: 1 µM
| target | remaining binding |
| --- | --- |
| Epidermal growth factor receptor (EGFR, Homo sapiens, UniProt P00533, del746-750) | 86% |
| Mitogen-activated protein kinase kinase kinase 1 (MAP3K1, Homo sapiens, UniProt Q13233) | 100% |
| Phosphatidylinositol 4,5-bisphosphate 3-kinase catalytic subunit alpha isoform (PIK3CA, Homo sapiens, UniProt P42336, E542K) | 72% |
| Dual specificity mitogen-activated protein kinase kinase 1 (MAP2K1, Homo sapiens, UniProt Q02750) | 100% |
| Mitogen-activated protein kinase kinase kinase 3 (MAP3K3, Homo sapiens, UniProt Q99759) | 90% |
| BMP-2-inducible protein kinase (BMP2K, Homo sapiens, UniProt Q9NSY1) | 97% |
| Bone morphogenetic protein receptor type-2 (BMPR2, Homo sapiens, UniProt Q13873) | 100% |

Series 3
Target: CEP164, C-terminal peptide (human)
Technique: DHFR complementation, deep sequencing
Medium: yeast
Setting: single substitutions, model-inferred values
Baseline: wild type
Direction: higher = weaker binding
Starting sequence: PDZK1, PDZ domain 2 (human); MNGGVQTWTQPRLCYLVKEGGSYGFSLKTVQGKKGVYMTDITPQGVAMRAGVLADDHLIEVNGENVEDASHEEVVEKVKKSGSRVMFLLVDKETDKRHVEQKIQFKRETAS; partner HNRVKVYRF
| Variant | binding free energy change [kcal/mol] |
| --- | --- |
| I41W | 1.42 |
| I41Y | 1.17 |
| G35V | 0.454 |
| R97F | -0.173 |
| I59R | 0.803 |
| G45M | 0.628 |
| Y15P | 0.793 |
| E100V | -0.0404 |

Series 4
Target: Serine/threonine-protein kinase Nek1 (NEK1, Homo sapiens, UniProt Q96PY6)
Chain of UniProt Q96PY6 (whole entry, looked up): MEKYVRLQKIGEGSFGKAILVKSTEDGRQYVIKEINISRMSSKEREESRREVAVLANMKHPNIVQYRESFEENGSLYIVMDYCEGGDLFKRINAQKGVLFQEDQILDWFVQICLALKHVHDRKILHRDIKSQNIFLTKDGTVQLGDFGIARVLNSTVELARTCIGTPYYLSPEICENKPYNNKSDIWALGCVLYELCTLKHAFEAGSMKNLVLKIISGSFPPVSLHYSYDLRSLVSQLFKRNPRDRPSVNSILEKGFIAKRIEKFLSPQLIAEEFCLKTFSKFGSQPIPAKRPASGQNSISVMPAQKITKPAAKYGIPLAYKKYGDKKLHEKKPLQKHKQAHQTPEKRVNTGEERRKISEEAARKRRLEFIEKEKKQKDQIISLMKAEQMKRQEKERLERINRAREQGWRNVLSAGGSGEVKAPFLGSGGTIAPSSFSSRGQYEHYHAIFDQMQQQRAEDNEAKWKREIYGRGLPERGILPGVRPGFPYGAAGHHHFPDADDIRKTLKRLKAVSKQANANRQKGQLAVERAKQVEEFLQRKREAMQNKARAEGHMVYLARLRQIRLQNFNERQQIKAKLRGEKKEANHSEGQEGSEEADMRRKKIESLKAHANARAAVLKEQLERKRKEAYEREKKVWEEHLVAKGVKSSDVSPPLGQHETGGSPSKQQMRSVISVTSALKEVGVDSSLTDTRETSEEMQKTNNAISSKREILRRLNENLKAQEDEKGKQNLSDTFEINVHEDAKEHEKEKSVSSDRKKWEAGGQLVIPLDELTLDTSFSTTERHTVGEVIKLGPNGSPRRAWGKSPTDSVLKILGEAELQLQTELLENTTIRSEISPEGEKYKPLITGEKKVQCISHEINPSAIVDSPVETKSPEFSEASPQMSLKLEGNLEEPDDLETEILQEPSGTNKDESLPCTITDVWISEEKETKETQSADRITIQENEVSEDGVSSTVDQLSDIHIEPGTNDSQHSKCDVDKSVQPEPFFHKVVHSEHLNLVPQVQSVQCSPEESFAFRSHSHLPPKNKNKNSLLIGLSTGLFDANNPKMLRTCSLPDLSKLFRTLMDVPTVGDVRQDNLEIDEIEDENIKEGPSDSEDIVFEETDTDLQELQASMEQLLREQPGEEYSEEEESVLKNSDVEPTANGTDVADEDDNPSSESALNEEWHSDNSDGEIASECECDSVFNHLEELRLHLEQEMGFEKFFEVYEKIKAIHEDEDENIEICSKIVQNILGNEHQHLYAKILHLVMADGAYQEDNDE
Observed: enzyme activity
Action: inhibitor
Tested at: 0.5 µM
Baseline: control
| SMILES | remaining activity |
| --- | --- |
| NCCNc1ncc(C(N)=O)c(Nc2cccc(C(F)(F)F)c2)n1 | 94.5% |
| CCOC(=O)c1c(C)[nH]c(/C=C2\C(=O)Nc3ccccc32)c1C | 92.5% |
| Cc1cccc(-c2[nH]c(C(C)(C)C)nc2-c2ccc3c(c2)OCO3)n1 | 78.9% |
| Oc1ccc(-c2nc(-c3ccncc3)c(-c3ccc(F)cc3)[nH]2)cc1 | 98.9% |
| CC(C)[C@H](CO)Nc1nc(Nc2cc(N)cc(Cl)c2)c2ncn(C(C)C)c2n1 | 81.5% |
| CNC(=O)c1cc(Oc2ccc(NC(=O)Nc3ccc(Cl)c(C(F)(F)F)c3)cc2)ccn1 | 88.8% |
| Nc1ccc2ncnc(NCCc3ccc(Oc4ccccc4)cc3)c2c1 | 102% |
| Cn1sc(=O)n(Cc2ccccc2)c1=O | 102% |
| Nc1ncnc2n[nH]c(Nc3ccc(F)cc3)c12 | 94% |
| CO[C@H]1C[C@@H]2CC[C@@H](C)[C@@](O)(O2)C(=O)C(=O)N2CCCC[C@H]2C(=O)O[C@H]([C@H](C)C[C@@H]2CC[C@@H](O)[C@H](OC)C2)CC(=O)[C@H](C)/C=C(\C)[C@@H](O)[C@@H](OC)C(=O)[C@H](C)C[C@H](C)/C=C/C=C/C=C/1C | 104% |
| COc1ccc(CNC(=O)Nc2ncc([N+](=O)[O-])s2)cc1 | 94.3% |
| O=S(=O)(c1cccc2cnccc12)N1CCCNCC1 | 90.3% |
| COc1ccc(C(=O)Nc2sc3c(c2C(N)=O)CCCC3)cc1OC | 89.8% |

For quick reference, copied from above (series 4):
| SMILES | remaining activity |
| --- | --- |
| Cc1cccc(-c2[nH]c(C(C)(C)C)nc2-c2ccc3c(c2)OCO3)n1 | 78.9% |
| Oc1ccc(-c2nc(-c3ccncc3)c(-c3ccc(F)cc3)[nH]2)cc1 | 98.9% |
| CC(C)[C@H](CO)Nc1nc(Nc2cc(N)cc(Cl)c2)c2ncn(C(C)C)c2n1 | 81.5% |
| CNC(=O)c1cc(Oc2ccc(NC(=O)Nc3ccc(Cl)c(C(F)(F)F)c3)cc2)ccn1 | 88.8% |
| Nc1ccc2ncnc(NCCc3ccc(Oc4ccccc4)cc3)c2c1 | 102% |
| Cn1sc(=O)n(Cc2ccccc2)c1=O | 102% |
